Assay results of several laboratories.
Compare with care: the assays were run in different laboratories. Numbers after ± are the reported error.

Cc1cccc(Cn2nc(C3CC3)c3c(NC(=O)c4cnc5cc(OCCN6CCN(C)CC6)ccn45)cccc32)n1
adverse events incidence (measured: Fatigue; human pancreatic ductal adenocarcinoma; oral, dose not given, all-causality): 59.3%

C[C@]1(O)C[C@@](N)(c2ccc(-c3nc4n(c3-c3ccccc3)COc3ccncc3-4)cc2)C1
patients with AST increased TEAE (human, advanced or metastatic solid tumours; dose not given, all patients): 17.6%

COc1ncnn2ccc(-c3cnc4nc(C)n(Cc5nnc([C@@H](C)F)o5)c4c3)c12
incidence of grade 1 decreased WBC (human patients; oral, dose not given): 0%

CCN1CCN(Cc2ccc(Nc3ncc(F)c(-c4cc(F)c5nc6n(c5c4)[C@H](C)CCC6)n3)nc2)CC1
Anemia incidence, any grade (advanced solid tumour patients; Phase Ia monotherapy): 66.7%

CC(C)C[C@@H]1NC(=O)CNC(=O)[C@H](CC(N)=O)NC(=O)[C@H](CCCNC(=N)N)NC(=O)[C@H]([C@@H](C)O)NC(=O)[C@@H]2CSSC[C@@H]3NC(=O)[C@H]([C@@H](C)O)NC(=O)CNC(=O)CNC(=O)[C@H](CCCCN)NC(=O)[C@@H]4CSSC[C@H](NC(=O)[C@H]([C@@H](C)O)NC(=O)[C@H](CSSC[C@H](NC(=O)[C@H](C(C)C)NC(=O)[C@@H]5CCCN5C1=O)C(=O)NCC(=O)N[C@@H](CCC(=O)O)C(=O)N[C@@H]([C@@H](C)O)C(=O)N4)NC(=O)CNC(=O)[C@@H]1CCCN1C(=O)[C@H]([C@@H](C)O)NC(=O)[C@H](CC(N)=O)NC3=O)C(=O)N[C@@H](CO)C(=O)N[C@@H](Cc1c[nH]c3ccccc13)C(=O)N1CCC[C@H]1C(=O)N[C@@H](C(C)C)C(=O)N2
remaining peptide (HPLC; ammonium bicarbonate 0.1 M; 180 µM, 14 days, pH 9.0, 37 °C, deamidation stability): 60.9 ± 1.1%

O.O.O.O.O.O.[Cl-].[Cl-].[Co+2]
reticulocytes (Crl:CD(SD) rat female, blood; oral, 0.74 mg Co/kg/day, 90 days; relative to: red blood cells): 12%

Cc1cc(C)c(CNC(=O)c2cc(Cl)c3c(c2C)O[C@@](C)([C@H]2CC[C@H](N(C)C)CC2)O3)c(=O)[nH]1
Infection incidence (human, relapsed/refractory NHL; concentration not given, all TEAEs, grade 5): 0%

CC(C)C[C@@H]1NC(=O)CNC(=O)[C@H](CC(N)=O)NC(=O)[C@H](CCCNC(=N)N)NC(=O)[C@H]([C@@H](C)O)NC(=O)[C@@H]2CSSC[C@@H]3NC(=O)[C@H]([C@@H](C)O)NC(=O)CNC(=O)CNC(=O)[C@H](C(C)C)NC(=O)[C@@H]4CSSC[C@H](NC(=O)[C@H]([C@@H](C)O)NC(=O)[C@H](CSSC[C@H](NC(=O)[C@H](C(C)C)NC(=O)[C@H](CCCCN)NC1=O)C(=O)NCC(=O)N[C@@H](CCC(=O)O)C(=O)N[C@@H]([C@@H](C)O)C(=O)N4)NC(=O)CNC(=O)[C@@H]1CCCN1C(=O)[C@H]([C@@H](C)O)NC(=O)[C@H](CC(N)=O)NC3=O)C(=O)N[C@@H](CO)C(=O)N[C@@H](Cc1c[nH]c3ccccc13)C(=O)N1CCC[C@H]1C(=O)N[C@@H](C(C)C)C(=O)N2
remaining peptide (HPLC; ammonium bicarbonate; 180 µM, 7 days, pH 9.0, 25 °C, deamidation stability): 30.4 ± 2.3%

COc1cc2c(cc1OC)CN(CCc1ccc(NC(=O)c3cccc4c(=O)c5cccc(OC)c5[nH]c34)cc1)CC2
elimination rate constant (CD-1 mouse, male, plasma; intraperitoneal, 3 mg/kg): 2.7e-05 s⁻¹

O=C(Nc1ccccc1)C1CCN(C(=O)Oc2cccnc2)CC1
change in well-coordinated–clumsy score (Bond-Lader VAS; healthy women; 20 mg; relative to: pre-dose baseline, direction not given): -7.6

N=C(N)NCCC[C@@H](NC(=O)[C@@H](N)Cc1ccccc1)C(=O)N[C@@H](Cc1ccccc1)C(=O)N[C@@H](CCCCN)C(N)=O
median amount excreted in urine (LC-MS; human; 5 mg, 11.83 h): 274000 ng

CO[C@H]1C[C@@H]2CC[C@@H](C)[C@@](O)(O2)C(=O)C(=O)N2CCCC[C@H]2C(=O)O[C@H]([C@H](C)C[C@@H]2CC[C@@H](OC(=O)NCCOCCOCCOCCOCCOCCOCCOCCOCCC(=O)N3CCc4cc(Cn5nc(-c6ccc7oc(N)nc7c6)c6c(N)ncnc65)ccc4C3)[C@H](OC)C2)C[C@@H](O)[C@H](C)/C=C(\C)[C@@H](O)[C@@H](OC)C(=O)[C@H](C)C[C@H](C)/C=C/C=C/C=C/1C
dyspnoea incidence (patients with advanced solid tumours; intravenous, 16 mg weekly, any grade): 50%

O=C1Nc2cc3[nH]nc(-c4ccncc4)c3cc2CN1Cc1ccccc1
patients with decreased appetite (CTCAE v4.03; advanced solid tumour patients; intravenous, 9.6 mg/kg, schedules 1/2): 11%

CN1CCN(S(=O)(=O)c2cc([N+](=O)[O-])ccc2N(CCOS(C)(=O)=O)CCOS(C)(=O)=O)CC1
concentration (NSG mice female, plasma; intraperitoneal, 5 mg/kg, 1 h): 20 nM

NCCCC[C@@H]1NC(=O)[C@@H](Cc2c[nH]c3ccccc23)NC(=O)[C@H](c2ccccc2)NC(=O)[C@@H]2C[C@@H](OC(=O)NCCN)CN2C(=O)[C@H](Cc2ccccc2)NC(=O)[C@H](Cc2ccc(OCc3ccccc3)cc2)NC1=O
placebo-corrected QTcF change (healthy volunteers, male; 600 µg twice daily, 1.0 h, post hoc): 9.6 ms

COc1ccnc(C(=O)N[C@H]2COC(=O)[C@H](Cc3ccccc3)[C@@H](OC(=O)C(C)C)[C@H](C)OC2=O)c1OCOC(=O)C(C)C
organic carbon-normalised Kf (KFoc) (silt loam soil; organic carbon 1.0 %, pH 5.5): 936 mL/g

CC(C)C[C@H](NC(=O)[C@H](CCCCN)NC(=O)OCC1c2ccccc2-c2ccccc21)C(=O)N[C@H](C(=O)N[C@@H](Cc1ccccc1)C(=O)N[C@@H](Cc1ccccc1)C(=O)N[C@@H](CCCCN)C(=O)NCC(=O)N[C@@H](Cc1ccccc1)C(=O)N[C@@H](C)C(=O)N[C@@H](Cc1c[nH]c2ccccc12)C(=O)N[C@@H](CC(N)=O)C(=O)N[C@H](C(=O)N[C@H]1CSSC[C@@H](C(=O)N[C@@H](Cc2c[nH]cn2)C(=O)N[C@@H](CCCNC(=N)N)C(=O)N[C@@H](CCCNC(=N)N)C(=O)N[C@@H](C)C(=O)N[C@@H](CC(N)=O)C(N)=O)NC(=O)[C@H](C(C)C)NC(=O)[C@H](CCCNC(=N)N)NC(=O)[C@H](C(C)C)NC(=O)CNC(=O)[C@H](CC(N)=O)NC(=O)[C@H](CCCNC(=N)N)NC(=O)[C@H](Cc2ccc(O)cc2)NC(=O)[C@H](C(C)C)NC1=O)C(C)C)C(C)C
eosinophils (ICR mice, blood; intraperitoneal, 5 mg/kg, day 5): 2.33 ± 0.16%

COc1cc2c(Oc3ccc4[nH]c(C)cc4c3F)ccnc2cc1OCC1(N)CC1
grade 1 or 2 AST elevation (paediatric recurrent refractory sarcoma; 8 mg): 25%

CN1CCN(c2ccc(Nc3nccc(-c4ccc(F)cc4)n3)cc2C(F)(F)F)CC1
toxicity (Danio rerio embryos; 5 µM, 5 d): 97 ± 3.5%

CN1CC[C@@H](c2c(O)cc(O)c3c(=O)cc(-c4ccc(C(F)(F)F)cc4Cl)oc23)[C@@H]1CO
patients with adverse event (measured: grade 3 rectal abscess; relapsed or refractory haematologic malignancy patients; oral, dose not given, phase dose escalation, all doses): 5%

CN[C@H]1CC[C@@H](c2ccc(Cl)c(Cl)c2)c2ccccc21
Tmax (CD-1 mouse, male, plasma; intraperitoneal, 3 mg/kg): 30 min

Clc1ccc(-c2cc(Cl)c(Cl)c(Cl)c2Cl)cc1Cl
log K(PDMS-water) (fresh water; 20 °C, S30-1 sampler, 30 µm): 6.37 ± 0.06

CC(=O)c1c(C)c2cnc(Nc3ccc(C4CCN(CCS(C)(=O)=O)CC4)cn3)nc2n(C2CCCC2)c1=O
patients with any TRAE (HR+/HER2- advanced breast cancer patients; oral, 25 mg): 66.7%

O=S(=O)(Nc1ccccc1)c1ccc(NC(=S)Nc2ccccc2)cc1
relative organ weight (female mice, liver; oral, 20 mg/kg daily 14 days; relative to: body weight): 4.83%

C[C@@H]1OC(=O)NN=C1c1ccc(-c2ccc(F)cc2)c(C(F)(F)F)c1
patients with adverse event (phase I trial, measured: Anaemia all grades; human patients; 5 mg once daily): 0%

C[C@]1(CO)Cc2ncn(-c3ccc(C#N)c(Cl)c3)c2C(=O)O1
accumulation ratio of AUC (healthy Japanese adults, plasma; 3 mg once daily, dosing interval 24 h): 1

CC[C@H](C)[C@@H]1NC(=O)[C@@H]2CSSC[C@H](NC(=O)[C@H](CCCNC(=N)N)NC(=O)[C@@H]3CSSC[C@H](NC1=O)C(=O)N[C@@H]([C@@H](C)O)C(=O)N[C@@H](CCCNC(=N)N)C(=O)NCC(=O)N[C@@H](Cc1ccccc1)C(=O)N3)C(=O)N[C@@H](CC(C)C)C(=O)N[C@H]1CSSC[C@H](NC(=O)[C@H](C(C)C)NC(=O)CNC(=O)[C@H](CCCNC(=N)N)NC(=O)[C@H](CCCNC(=N)N)NC1=O)C(=O)N[C@@H](CCCNC(=N)N)C(=O)N2
lung eosinophilic infiltration score (Sprague-Dawley rat, male, lung; 5 mg/kg, perivascular, peribronchiolar; direction not given): 1 to 2

CCc1ccc(CC/C=C/c2ccc3c(c2)C(=O)CC3)cc1
CHCM (Sprague-Dawley rat, male; oral, 30 mg/kg/day, 14 days): 315 g/L

Cc1cn([C@H]2O[C@@H](CO[P@@](=O)(N[C@@H](C)C(=O)OC(C)C)Oc3ccccc3)[C@H](O)[C@H]2F)c(=O)[nH]c1=O
patients with TEAE (measured: Headache; human; 25 mg): 40%

COc1cc(C2C3=C(COC3=O)N(CCO)c3cc4c(cc32)CCC4)cc(OC)c1OC (stereo not drawn)
body weight (female Sprague-Dawley rats; intraperitoneal, 400 mg/kg, 72 h, single dose, mean): 217 g

CC(=O)c1c(C)c2cnc(Nc3ccc(N4CCNCC4)cn3)nc2n(C2CCCC2)c1=O
MTD (healthy wild-type C57BL/6 mouse pups; oral, daily from postnatal day P10): 100 mg/kg/day

CCN1[C@@H](C(=O)NC23CCC(C(=O)O)(CC2)CC3)[C@H](c2cccc(Cl)c2F)[C@]2(C(=O)Nc3cc(Cl)ccc32)C12CCCCC2
grade 3-4 treatment-related adverse events (advanced solid tumour patients; oral, dose not given; relative to: patients): 52.4%

CC(C)(c1ccccc1)c1cc(-n2nc3ccccc3n2)c(O)c(C(C)(C)c2ccccc2)c1
daily dermal uptake, percentile (exposure assessment; human, age 1-2 years; concentration not given, spray sunscreen, 95th percentile): 87.1 ng/kg body weight/day

c1cc2ccc3cccc4ccc(c1)c2c34
literature range of log K (polyethylene-water partitioning; PAH compilation): 4.7 to 5.25 log units

O=C(O)CCCOc1ccc(F)cc1-c1cc(-c2ccccc2C(F)(F)F)n(-c2ccccc2)n1
organ weight (female Crl:CD(SD) rats, brain; intravenous, 25 µg/kg, 1 d): 1.88 ± 0.09 g

COc1cc(N2CC[C@@]3(O)C(=O)c4cc(C)c(C)cc4N=C23)ccn1
motor learning and memory (rotarod; mice; 10 mg/kg): no effect

CCN(CCO)CCCC(C)Nc1ccnc2cc(Cl)ccc12 (stereo not drawn)
anemia patients (newly diagnosed glioblastoma patients; oral, 400 mg/dose, grade 4, with: radiotherapy and temozolomide): 14%

Clc1cc(Cl)c(-c2c(Cl)c(Cl)cc(Cl)c2Cl)cc1Cl
log K(PDMS-water) (fresh water; 20 °C): 6.76 ± 0.09

CC[C@H](C)[C@H](NC(=O)[C@H](CO)NC(=O)[C@H](CCCNC(=N)N)NC(C)=O)C(=O)N[C@H]1CSSC[C@@H](C(=O)N[C@H](C(N)=O)[C@@H](C)O)NC(=O)[C@H](CCCNC(=N)N)NC(=O)[C@H](Cc2cnc[nH]2)NC(=O)[C@H](C)NC(=O)CNC(=O)[C@H](Cc2c[nH]c3ccccc23)NC(=O)[C@H](CC(=O)O)NC(=O)[C@H](CCC(N)=O)NC(=O)[C@H](Cc2ccc(O)cc2)NC(=O)[C@H](C(C)C)NC1=O
log retention factor (isocratic RP-HPLC; C18 column; pH 7.4, 25 °C, elution method 2; higher = more lipophilic): -0.509

For quick reference, copied from above:
CC[C@H](C)[C@H](NC(=O)[C@H](CO)NC(=O)[C@H](CCCNC(=N)N)NC(C)=O)C(=O)N[C@H]1CSSC[C@@H](C(=O)N[C@H](C(N)=O)[C@@H](C)O)NC(=O)[C@H](CCCNC(=N)N)NC(=O)[C@H](Cc2cnc[nH]2)NC(=O)[C@H](C)NC(=O)CNC(=O)[C@H](Cc2c[nH]c3ccccc23)NC(=O)[C@H](CC(=O)O)NC(=O)[C@H](CCC(N)=O)NC(=O)[C@H](Cc2ccc(O)cc2)NC(=O)[C@H](C(C)C)NC1=O
log retention factor (isocratic RP-HPLC; C18 column; pH 7.4, 25 °C, elution method 2; higher = more lipophilic): -0.509

Clc1cc(Cl)c(-c2c(Cl)c(Cl)cc(Cl)c2Cl)cc1Cl
log K(PDMS-water) (fresh water; 20 °C): 6.76 ± 0.09

NCCCC[C@@H]1NC(=O)[C@@H](Cc2c[nH]c3ccccc23)NC(=O)[C@H](c2ccccc2)NC(=O)[C@@H]2C[C@@H](OC(=O)NCCN)CN2C(=O)[C@H](Cc2ccccc2)NC(=O)[C@H](Cc2ccc(OCc3ccccc3)cc2)NC1=O
placebo-corrected QTcF change (healthy volunteers, male; 600 µg twice daily, 1.0 h, post hoc): 9.6 ms
